Measurements of several laboratories.
Numbered parts are unrelated; each lists some results of a single study. Several values in a cell are separate wells, animals, samples, runs or records.
UniProt P21918, sequence (whole entry, looked up): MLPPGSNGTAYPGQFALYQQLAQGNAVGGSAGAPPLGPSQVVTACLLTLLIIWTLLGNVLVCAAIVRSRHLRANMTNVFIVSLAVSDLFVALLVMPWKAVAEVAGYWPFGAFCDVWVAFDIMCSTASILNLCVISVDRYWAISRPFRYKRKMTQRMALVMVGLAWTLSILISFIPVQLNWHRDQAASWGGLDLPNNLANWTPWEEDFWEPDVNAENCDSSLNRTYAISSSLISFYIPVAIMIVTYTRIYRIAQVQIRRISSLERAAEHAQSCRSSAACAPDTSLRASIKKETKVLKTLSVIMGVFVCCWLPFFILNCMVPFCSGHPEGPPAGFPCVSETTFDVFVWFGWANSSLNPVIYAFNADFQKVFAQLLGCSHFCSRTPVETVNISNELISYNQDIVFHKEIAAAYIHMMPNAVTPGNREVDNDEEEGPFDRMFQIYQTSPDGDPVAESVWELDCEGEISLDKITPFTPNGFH

Series 1
Target: Calcium/calmodulin-dependent protein kinase type II subunit alpha (CAMK2A, Homo sapiens, UniProt Q9UQM7)
UniProt Q9UQM7, sequence (whole entry, looked up): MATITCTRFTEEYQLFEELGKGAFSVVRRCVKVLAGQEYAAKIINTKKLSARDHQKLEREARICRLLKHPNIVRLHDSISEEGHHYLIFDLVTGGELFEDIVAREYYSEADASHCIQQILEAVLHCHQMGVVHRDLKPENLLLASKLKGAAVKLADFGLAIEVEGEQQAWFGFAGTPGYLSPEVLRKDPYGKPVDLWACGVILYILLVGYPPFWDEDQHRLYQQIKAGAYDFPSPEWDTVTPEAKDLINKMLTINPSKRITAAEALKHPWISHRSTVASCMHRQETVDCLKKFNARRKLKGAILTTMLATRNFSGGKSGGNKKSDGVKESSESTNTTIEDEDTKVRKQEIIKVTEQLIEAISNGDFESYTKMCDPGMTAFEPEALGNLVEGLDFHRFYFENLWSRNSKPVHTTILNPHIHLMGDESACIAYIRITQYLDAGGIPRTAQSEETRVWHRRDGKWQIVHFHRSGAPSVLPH
Effect on: enzyme activity
Mode: inhibitor
Concentration: 10 µM
SMILES | inhibition
COc1ccccc1OCC(O)COC(N)=O (stereo not shown) | -1%
O=C(c1ccccc1)c1ccccc1 | 7%
O=C1C[C@@H](C(=O)O)NC(=O)N1 | -3%
COC(=O)/C=C/c1ccc(O)cc1 | -14%
O=c1c2cc(O)c(O)cc2oc2c([C@@H]3O[C@H](CO)[C@@H](O)[C@H](O)[C@H]3O)c(O)cc(O)c12 | 22%
CC(C)=CC[C@H](O)C1=CC(=O)c2c(O)ccc(O)c2C1=O | 46%
CN1CC(=O)N2[C@H](c3ccc4c(c3)OCO4)c3[nH]c4ccccc4c3C[C@@H]2C1=O | 0%
NC[C@H]1O[C@H](O[C@H]2[C@H](O)[C@@H](O[C@H]3O[C@H](CO)[C@@H](O)[C@H](N)[C@H]3O)[C@H](N)C[C@@H]2N)[C@H](N)[C@@H](O)[C@@H]1O | 5%

Series 2
Species: mouse
Medium: microsomes or S9
Concentration: 2 µM
Time: 0.5 h
SMILES | remaining compound [%]
CCn1nc(-c2cc(C)ccc2Cl)nc1N(C)C | 0.14
COc1cccc(Nc2nnc(SCC(=O)OC(C)(C)C)s2)c1 | 0
COc1cc(Br)c(S(=O)(=O)NC2CCN(S(=O)(=O)c3ccccc3)CC2)cc1OC | 75.9
COc1ccccc1CNC(=O)c1cc2c(s1)CS(=O)(=O)C2 | 49.6
Cc1cc(C)cc(C(=O)c2c(C(C)C)c(=O)[nH]c(=O)n2Cc2ccnc(N)c2)c1 | 17.4
O=C(CNS(=O)(=O)c1cc(-c2noc(C3CCC3)n2)cs1)N1CCN(c2ccccc2)CC1 | 8.15
Cc1[nH]c(=O)[nH]c(=O)c1S(=O)(=O)NCC(Cc1ccccc1F)c1ccccc1 (stereo not shown) | > 100
COc1ccc(N2C(=O)/C(=C\NN(C)C)c3ccccc3C2=O)cc1 | 49.7

Series 3
Target: DNA polymerase theta, ATPase domain (POLQ, Homo sapiens, UniProt O75417)
UniProt O75417, sequence (whole entry, unmodified, looked up): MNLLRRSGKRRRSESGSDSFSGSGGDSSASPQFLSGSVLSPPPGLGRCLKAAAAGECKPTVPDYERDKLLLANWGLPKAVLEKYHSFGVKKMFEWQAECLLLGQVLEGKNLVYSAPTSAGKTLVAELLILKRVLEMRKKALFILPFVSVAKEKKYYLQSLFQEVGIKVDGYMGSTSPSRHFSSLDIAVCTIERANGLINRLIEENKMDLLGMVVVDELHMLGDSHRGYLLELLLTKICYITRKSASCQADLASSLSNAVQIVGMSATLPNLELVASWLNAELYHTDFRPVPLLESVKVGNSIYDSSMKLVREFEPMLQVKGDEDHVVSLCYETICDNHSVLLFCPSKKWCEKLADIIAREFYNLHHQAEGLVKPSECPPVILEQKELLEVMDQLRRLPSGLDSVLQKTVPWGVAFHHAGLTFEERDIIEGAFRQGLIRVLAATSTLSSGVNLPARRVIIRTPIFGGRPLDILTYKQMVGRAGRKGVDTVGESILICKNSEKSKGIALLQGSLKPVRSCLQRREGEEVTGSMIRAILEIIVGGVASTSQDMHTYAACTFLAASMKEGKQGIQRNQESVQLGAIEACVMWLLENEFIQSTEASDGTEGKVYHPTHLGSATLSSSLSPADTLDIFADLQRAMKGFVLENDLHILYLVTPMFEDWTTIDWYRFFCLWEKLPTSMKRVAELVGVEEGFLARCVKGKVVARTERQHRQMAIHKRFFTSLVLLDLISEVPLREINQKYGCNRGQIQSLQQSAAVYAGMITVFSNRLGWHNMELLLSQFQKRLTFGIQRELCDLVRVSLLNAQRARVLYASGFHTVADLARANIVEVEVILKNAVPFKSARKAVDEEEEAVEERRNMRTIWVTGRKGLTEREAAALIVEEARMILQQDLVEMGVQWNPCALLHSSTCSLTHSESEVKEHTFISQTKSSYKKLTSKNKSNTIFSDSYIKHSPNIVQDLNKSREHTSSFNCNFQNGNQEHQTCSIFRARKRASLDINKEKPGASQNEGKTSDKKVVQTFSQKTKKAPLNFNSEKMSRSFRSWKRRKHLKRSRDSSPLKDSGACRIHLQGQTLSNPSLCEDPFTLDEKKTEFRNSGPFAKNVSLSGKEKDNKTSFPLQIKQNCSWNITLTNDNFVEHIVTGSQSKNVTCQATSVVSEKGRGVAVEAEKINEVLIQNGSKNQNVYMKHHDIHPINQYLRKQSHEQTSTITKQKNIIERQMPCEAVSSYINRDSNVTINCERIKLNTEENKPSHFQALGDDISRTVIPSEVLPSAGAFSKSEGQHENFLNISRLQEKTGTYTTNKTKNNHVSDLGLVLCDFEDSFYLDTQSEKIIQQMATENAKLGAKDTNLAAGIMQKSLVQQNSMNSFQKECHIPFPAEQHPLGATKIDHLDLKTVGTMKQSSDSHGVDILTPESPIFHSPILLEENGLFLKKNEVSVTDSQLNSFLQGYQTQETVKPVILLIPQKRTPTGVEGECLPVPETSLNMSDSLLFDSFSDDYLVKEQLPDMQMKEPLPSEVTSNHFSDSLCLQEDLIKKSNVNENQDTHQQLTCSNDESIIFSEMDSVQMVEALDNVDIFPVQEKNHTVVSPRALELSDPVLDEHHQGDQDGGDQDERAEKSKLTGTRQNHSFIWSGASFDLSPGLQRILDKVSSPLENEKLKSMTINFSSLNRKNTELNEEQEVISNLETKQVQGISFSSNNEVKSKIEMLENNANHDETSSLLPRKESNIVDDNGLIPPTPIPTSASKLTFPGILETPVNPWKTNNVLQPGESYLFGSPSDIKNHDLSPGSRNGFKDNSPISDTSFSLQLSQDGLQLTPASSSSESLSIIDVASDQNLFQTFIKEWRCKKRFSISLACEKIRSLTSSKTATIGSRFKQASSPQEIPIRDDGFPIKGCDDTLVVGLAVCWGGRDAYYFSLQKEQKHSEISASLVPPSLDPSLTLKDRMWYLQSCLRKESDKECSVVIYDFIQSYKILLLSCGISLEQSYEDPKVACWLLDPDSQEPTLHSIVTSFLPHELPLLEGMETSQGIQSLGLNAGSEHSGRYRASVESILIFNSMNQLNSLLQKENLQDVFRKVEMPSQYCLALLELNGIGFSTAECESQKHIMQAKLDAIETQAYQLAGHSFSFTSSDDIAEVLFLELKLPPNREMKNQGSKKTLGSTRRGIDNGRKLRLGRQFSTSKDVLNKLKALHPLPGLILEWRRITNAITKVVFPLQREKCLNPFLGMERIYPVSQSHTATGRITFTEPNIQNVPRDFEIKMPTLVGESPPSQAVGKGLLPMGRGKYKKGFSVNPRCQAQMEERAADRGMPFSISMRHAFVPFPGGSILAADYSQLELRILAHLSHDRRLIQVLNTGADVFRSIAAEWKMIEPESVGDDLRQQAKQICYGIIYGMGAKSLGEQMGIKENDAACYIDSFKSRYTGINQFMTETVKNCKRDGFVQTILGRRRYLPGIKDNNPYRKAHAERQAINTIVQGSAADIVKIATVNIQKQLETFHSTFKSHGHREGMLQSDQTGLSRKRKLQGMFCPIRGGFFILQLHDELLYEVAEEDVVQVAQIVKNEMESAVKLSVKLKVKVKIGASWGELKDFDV
Effect on: enzyme activity
Mode: inhibitor
Concentration: 77 µM
Baseline: untreated
SMILES | remaining activity
OC[C@@H](O)[C@@H](O)[C@@H](O)CO | 94.5%
CCC1NC(=O)c2cc(S(N)(=O)=O)c(Cl)cc2N1 (stereo not shown) | 100%
c1cnc2c(c1)ccc1cccnc12 | 104%
O=C(O)C1=CCCN(CCON=C(c2ccccc2)c2ccccc2)C1 | 93.9%
O=C(O)c1cc(/N=N/c2ccc(O)c(C(=O)O)c2)ccc1O | 77.9%
CC1(C)CC(=O)c2c(C(F)(F)F)nn(-c3ccc(C(N)=O)c(N[C@H]4CC[C@H](OC(=O)CN)CC4)c3)c2C1 | 97.3%
COc1cc(-c2cc(-c3cccc(O)c3)cnc2N)cc(OC)c1OC | 97%
COC(=O)C1=C(C)NC(C)=C(C(=O)OC(C)C)C1c1cccc2nonc12 (stereo not shown) | 91% and 102%

Single results of other studies
SMILES | target | test | setting | measurement | result
CCC(=O)N[C@@H]1CC[C@H](C(=O)N(C)c2ccc(-c3nc4ccccc4o3)cc2)C1 | D(1B) dopamine receptor (DRD5, Homo sapiens, UniProt P21918) | binding, radioligand binding | 10 µM | inhibition | 4.47%

A few entries again (single results of other studies):
SMILES | target | test | setting | measurement | result
CCC(=O)N[C@@H]1CC[C@H](C(=O)N(C)c2ccc(-c3nc4ccccc4o3)cc2)C1 | D(1B) dopamine receptor (DRD5, Homo sapiens, UniProt P21918) | binding, radioligand binding | 10 µM | inhibition | 4.47%
